# Measured values from different studies.
# Each numbered part is a random draw from the data of one study; scales do not carry over between parts. Substitutions count along the parent as printed.

# Block 1
# Target: Sal-like protein 4, full length isoform A (SALL4, Homo sapiens, UniProt Q9UJQ4, residues 1-1053)
# Chain of UniProt Q9UJQ4 (whole entry, looked up): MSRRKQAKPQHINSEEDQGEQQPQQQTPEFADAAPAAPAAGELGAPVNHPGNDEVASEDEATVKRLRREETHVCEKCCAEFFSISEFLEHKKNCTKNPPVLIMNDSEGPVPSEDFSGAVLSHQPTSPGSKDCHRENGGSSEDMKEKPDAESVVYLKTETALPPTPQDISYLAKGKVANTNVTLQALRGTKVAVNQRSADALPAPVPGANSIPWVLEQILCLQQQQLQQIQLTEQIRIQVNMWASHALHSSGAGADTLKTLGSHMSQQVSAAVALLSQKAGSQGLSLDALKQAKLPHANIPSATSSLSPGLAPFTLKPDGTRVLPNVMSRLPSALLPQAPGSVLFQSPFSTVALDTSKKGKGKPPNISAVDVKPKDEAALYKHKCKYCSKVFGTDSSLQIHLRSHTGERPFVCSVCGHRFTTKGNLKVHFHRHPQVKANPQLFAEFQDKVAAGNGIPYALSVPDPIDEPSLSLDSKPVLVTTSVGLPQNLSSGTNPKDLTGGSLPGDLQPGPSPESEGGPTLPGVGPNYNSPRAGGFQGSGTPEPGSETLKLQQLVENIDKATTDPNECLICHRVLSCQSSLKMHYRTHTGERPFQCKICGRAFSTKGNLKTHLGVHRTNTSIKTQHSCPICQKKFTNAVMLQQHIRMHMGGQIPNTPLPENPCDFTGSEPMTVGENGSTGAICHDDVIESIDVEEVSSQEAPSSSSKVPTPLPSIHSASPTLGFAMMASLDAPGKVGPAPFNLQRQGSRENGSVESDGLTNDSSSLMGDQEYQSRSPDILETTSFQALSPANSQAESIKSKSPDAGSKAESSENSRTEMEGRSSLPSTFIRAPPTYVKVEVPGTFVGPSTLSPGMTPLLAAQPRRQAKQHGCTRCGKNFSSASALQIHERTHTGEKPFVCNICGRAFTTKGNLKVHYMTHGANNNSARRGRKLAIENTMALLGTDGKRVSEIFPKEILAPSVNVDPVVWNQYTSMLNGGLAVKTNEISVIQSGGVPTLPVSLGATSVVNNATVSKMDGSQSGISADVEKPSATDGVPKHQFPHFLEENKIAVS
# Method: universal PBM
# Form: double-stranded DNA, one strand shown
# Matrix: in vitro
# Concentration: 600 nM
# Notes: 8-mer, flanks averaged, mean of replicates
# Direction: higher = stronger binding
Strand,E-score
CATTTAGC,-0.0013
ACTCATAC,0.223
CCCCACAC,-0.119
AATGAGCA,0.132
ATGCATTG,0.103
CAACTTCG,-0.0534
AAACGCAT,0.0151
ACTGATAT,0.178
AGAAACCT,-0.138
ACCCGGGT,-0.284
ACGGGTTA,-0.0525
GGACCCCA,-0.376
CCTTTCAG,-0.133
AAGTCTCC,-0.0199
AGCGGGGC,-0.343
AGGGCGCA,-0.288
AGATACCT,-0.0877
CCACCTAA,-0.0536
CTATCAGC,0.118
AGGCAGGG,-0.156
GGCGATTA,0.0258
CAAATTAA,0.26
AAGATTGA,0.14
AAGCTCGA,0.0652
CCTATTTC,0.105

# Block 2
# Target: Prothrombin, mature alpha-thrombin (F2, Homo sapiens, UniProt P00734)
# Method: aptamer microarray, sandwich
# Form: DNA with 2'F-ANA
# Matrix: in vitro
# Concentration: 200 nM
# Notes: whole 15-mer aptamer, many near background
# Added: Cy3 exosite-II aptamer, 400 nM
# Direction: higher = stronger binding
# Strand: GGTTGGTGTGGTTGG
Modification,mean fluorescence intensity
2'F-ANA at 6 10 11 12 14 15,109 a.u.
2'F-ANA at 5 9 10 13 14,44.5 a.u.
2'F-ANA at 1 5 6 7 8 15,62.3 a.u.
2'F-ANA at 2 3 4 5 9 10,51.2 a.u.
2'F-ANA at 1 2 4 5 9 15,54 a.u.
2'F-ANA at 1 2 6 7 8 11 12 14 15,69.6 a.u.
2'F-ANA at 1 3 4 7 10 12 15,81.5 a.u.
2'F-ANA at 1 4 5 7 8 10 11 12 13 14,65.3 a.u.
2'F-ANA at 1 4 6 7 8 11 14,50.5 a.u.
2'F-ANA at 2 3 4 5 6 9 11 15,71.1 a.u.
2'F-ANA at 1 5 6 7 9 13 14,45.4 a.u.
2'F-ANA at 1 2 3 5 9 13,50.4 a.u.
2'F-ANA at 1 6 8 11,177 a.u.
2'F-ANA at 1 4 5 6 8 10 12 15,54.9 a.u.
2'F-ANA at 1 2 3 5 7 9 10 14 15,64.3 a.u.
2'F-ANA at 1 2 3 4 5 7 10 11 13 14 15,80.3 a.u.
2'F-ANA at 1 3 4 9 10 14 15,50.9 a.u.
2'F-ANA at 1 2 7 9 10 12,74.7 a.u.
2'F-ANA at 2 8 12,899 a.u.
2'F-ANA at 1 2 3 4 7 8 10 11 12 13 14 15,52.7 a.u.
2'F-ANA at 6 7 9 13,349 a.u.
2'F-ANA at 1 4 5 7 9 10 11 14 15,106 a.u.
2'F-ANA at 2 3 5 9 10 11 12 13 14,47.6 a.u.
2'F-ANA at 4 10 12 13 14 15,68.9 a.u.

# Block 3
# Target: CCNF, cyclin fold, Cln2 fusion (human)
# Method: yeast growth competition, sequencing
# Matrix: yeast
# Notes: strong parent motif
# Reference: not given
# Direction: higher = stronger binding
# Starting sequence: MICAL3 docking peptide (human); LQLRRQLSFSEDS
Variant,normalised enrichment score
L7K,0.31
R5F,0.336
R4N,5.05
Q6D,0.0587
F9A,0.267
F9I,0.248
D12Q,5.4
S8N,6.82
Q2H,5.58
L3F,4.43
R4H,1.81
S10R,4.95
Q2R,5.36
S8E,5.95
S10C,5.66
D12W,6.36
S10F,5.69
S10L,5.59
L7T,-0.163
D12S,5.34
R4W,1.9
L3R,1.08
F9L,0.798
D12P,5.98
R4V,3.03

# Block 4
# Target: RNA binding protein fox-1 homolog 2, RRM domain, GST-SBP tag (RBFOX2, Homo sapiens, UniProt O43251-10, residues 100-194)
# Method: RNA Bind-n-Seq
# Form: RNA
# Matrix: in vitro
# Concentration: 365 nM
# Notes: natural RNA segment, single round, ends assumed
# Reference: no-protein control
# Direction: higher = stronger binding
# All sequences stand within: GGGAGUUCUACAGUCCGACGAUC … UGGAAUUCUCGGGUGCCAA
# Residues (chain): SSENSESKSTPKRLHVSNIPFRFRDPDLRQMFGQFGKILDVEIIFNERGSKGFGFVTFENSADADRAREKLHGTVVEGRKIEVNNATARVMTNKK
Strand,RBNS enrichment (R)
UGACAGGAUCCACAGACUUCUCCAGGACCUUCCAGAGACCCUGCCAGCUGUUAGAGGACAGAGCCAGCUCAGUAGGACCUCCUGCUCCUCCCCCCGGCUUCGUGCCCUUU,0.403
GCUUUAGGUCUUCCUGGUUUUUCAUAGUCAACAUUCCACUGAAAUGUACAUAGAAUUGCCAGUGUAUAAAUUAAGAUGUUUUAUUGUUGUUGUCCUUCUUAAUCUCAUUA,0.677
AAUUCUUGACAGUCUGUGUCCCAUCAGUCACUGCAUUUUUCUUUUUCCAAAUACAUCCUGUUGGAUACUGAAUAGAUCAUAGAUAUUGUAGACUGAGAUCUGGGACUGUG,0.582
CUGUCAGCAUCCUCACACAGCGCCUCCAUUACAUGGAAAGGGCUGGCUGCAGUCUCAACCAGGAAUGGCCAGAAGCCUCCACAGCUCCAUUACAGUGCUUUGGCUGGCUG,0.295
GCCUACCUCUCCACAAGGGGAUUUUGCUGAUGGGUUCUUAGAGCCUUAGCAGCCCUGGAUGGUGGCCAGAAAUAAAGGGACCAGCCCUUCAUGGGUGGUGACGUGGUAGU,0.282
AAUCCUUACUGAUAUUUAUAGAACAGUUGAUUUCCCCCAUCCCCAGUUUAUGGAUAUGCUGCUUUAAACUUGGAAGGGGGAGACAGGAAGUUUUAAUUGUUCUGACUAAA,0.489
GUAGAGAAAAGCACACUUGUAGGAUAAGUGAAAUGGAUACUACAUCUUUAAACAGUAUUUCAUUGCCUGUGUAUGGAAAAACCAUUUGAAGUGUACCUGUGUACAUAACU,2.1
CCCUGUAUCCUAGUGAUAACUCCAGGUCUGUGAACCAUUCAAACAGCAUUCAUUUUGAGAAAAGCAACUUUAGUUUCAAGGAUAAUUUUAAGCUUCAAAAUUAAUCAUUU,1.62
CGUGAACAUUGUGCCGUACCUGAGAUGGUCUGUGGACUGCUGCUUCAGACACACGAGUCCUCGGAACUGCCUGGCUGCCUGUCACGCAUGCUCUGAGUCAGAACACACCA,10.1
AAGAAGCAGAUAUCUCGAAGGAGCUUACACAAGAACCACAAUUACUAGAUCAUGAUAUACUUGGAAAGUGUGAAAUAUGGUGUGUACUCAGUUAUUGGCUUCCAUUUUUU,0.646
CAAAAAAACUUCUGCUUUGUCUUUGGUCAUUAGGGAGCUCUAAUGUGUGUUUGUGGCUCCAAGUUACAUUUUGUGUUUCAUUGAUCUAUAUGUAUAUAUGUGAUGUUUUC,0.701
ACUUGAUCAUUUUUAUAUUACUUUUGUAAAUAUUCUUGGCCACAUUCUACUUCAGCUCUGGAUGUGGUUACCAAGUAUCUGUAACCCUUGAGCCCCUAGACAGUAUUGCC,0.636

# Block 5
# Target: Centromere-binding protein 1, full length, His-tagged (CBF1, Saccharomyces cerevisiae, UniProt P17106, residues 1-351)
# Chain of UniProt P17106 (whole entry, looked up): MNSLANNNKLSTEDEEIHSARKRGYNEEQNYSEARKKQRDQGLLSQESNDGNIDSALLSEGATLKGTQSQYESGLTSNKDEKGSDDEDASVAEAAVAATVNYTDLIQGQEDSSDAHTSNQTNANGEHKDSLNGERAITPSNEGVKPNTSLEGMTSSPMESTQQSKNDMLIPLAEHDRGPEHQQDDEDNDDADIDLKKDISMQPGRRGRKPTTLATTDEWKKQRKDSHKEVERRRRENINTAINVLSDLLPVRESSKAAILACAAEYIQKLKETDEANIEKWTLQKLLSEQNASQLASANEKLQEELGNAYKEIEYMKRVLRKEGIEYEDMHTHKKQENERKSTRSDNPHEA
# Method: competition protein-binding microarray
# Form: double-stranded DNA, one strand shown
# Matrix: in vitro
# Concentration: 2 µM
# Notes: whole 60-bp probe, lowest competitor level
# Added: Pho4 competitor, 0.05 µM
# Direction: higher = stronger binding
# All sequences stand within: … GTCTTGATTCGCTTGACGCTGCTG
Strand,fluorescence intensity [a.u.]
CTAACGAAGGTTTGATATGTGGGTGACAAGCCAAGT,74.3
ATACATTTCTCAGGACACGTACTGAGAATATTGTTG,111
CTGTCATCATGTACTCATGTGCCCGCGCGCGCGCTT,107
CGGGGTTAAGTTTGGCCCGTGGGTGGCTTGCAGCAG,64.5
TGCGCAACAACTTGCCTAGTGGGTGTATGTCTAGAA,65.3
TGACTCAAAATATTTGACATACTGTTCTATGGCTTT,71
AAATTACTAAGTTGTGTAGTGGGTGACGCCGTATGA,67
GTCTTGTCTCATTGGCGAGTGGGTGTCCCCACTTCA,65.9
TTACTCAGGAGATTGCACGTTGAAGCAGTACGTTGA,80.1
GAATCTCCGCATATACATGTGGTCGGCATCGTTGTC,108
TCAAGTGGGGTAGGACACGGGACTTCAGGTCCTCCT,188
CGAATCCGGAAAAACTACGTGACGGGAACGATGACC,113
CATTCGAAGCAGTGCCAAGTTCTATTGTATCATTCC,69.7
TGCGCAACAACTTGGCCAGTGGGTGTATGTCTAGAA,56.4
TGCGCAACAACTTGGTGCGTGGGTGTATGTCTAGAA,71.6
AAATTACTAAGTTGCCCTGTGGGTGACGCCGTATGA,59.6
GAACAAGGTGCCCGTCACATGGCAGAAGGCTACGCC,376
CGGGGTTAAGTTTTTCACGTGGAATGCTTGCAGCAG,402
ACACCAAATCCGAGTCACGTTCCTTCTTGATTAGTG,880
TTTACTAGTAATTTGCACGTGATGGGGCGAGATGGT,3190
ACCTTCTAATTTTGGAGCGTGACGAATGGCCTCAAT,186
TACTTTCTACGCGGCCACGTGCAATTAAAAGATGGC,1860
CACCGAATTTCCTGGCACGATCGTTGTTACCAGCTG,88.4
ATATTCTTAGTATTCCATGTGTCTCGTAATACCTTA,123

# Some of these lines once more (block 5):
Strand,fluorescence intensity [a.u.]
CTGTCATCATGTACTCATGTGCCCGCGCGCGCGCTT,107
TGCGCAACAACTTGGTGCGTGGGTGTATGTCTAGAA,71.6
TCAAGTGGGGTAGGACACGGGACTTCAGGTCCTCCT,188
ACCTTCTAATTTTGGAGCGTGACGAATGGCCTCAAT,186
TTACTCAGGAGATTGCACGTTGAAGCAGTACGTTGA,80.1
AAATTACTAAGTTGCCCTGTGGGTGACGCCGTATGA,59.6
GAACAAGGTGCCCGTCACATGGCAGAAGGCTACGCC,376
CGGGGTTAAGTTTGGCCCGTGGGTGGCTTGCAGCAG,64.5
CACCGAATTTCCTGGCACGATCGTTGTTACCAGCTG,88.4
GAATCTCCGCATATACATGTGGTCGGCATCGTTGTC,108
ATACATTTCTCAGGACACGTACTGAGAATATTGTTG,111
TGCGCAACAACTTGGCCAGTGGGTGTATGTCTAGAA,56.4
GTCTTGTCTCATTGGCGAGTGGGTGTCCCCACTTCA,65.9
TGACTCAAAATATTTGACATACTGTTCTATGGCTTT,71
CGGGGTTAAGTTTTTCACGTGGAATGCTTGCAGCAG,402
CATTCGAAGCAGTGCCAAGTTCTATTGTATCATTCC,69.7
